Measurements from different studies.
“And” joins repeats or separate records; there may be more than shown. ± gives the spread as reported.
TOP2A: DNA topoisomerase 2-alpha (TOP2A, Homo sapiens, UniProt P11388)
Chain of UniProt P11388 (whole entry, looked up): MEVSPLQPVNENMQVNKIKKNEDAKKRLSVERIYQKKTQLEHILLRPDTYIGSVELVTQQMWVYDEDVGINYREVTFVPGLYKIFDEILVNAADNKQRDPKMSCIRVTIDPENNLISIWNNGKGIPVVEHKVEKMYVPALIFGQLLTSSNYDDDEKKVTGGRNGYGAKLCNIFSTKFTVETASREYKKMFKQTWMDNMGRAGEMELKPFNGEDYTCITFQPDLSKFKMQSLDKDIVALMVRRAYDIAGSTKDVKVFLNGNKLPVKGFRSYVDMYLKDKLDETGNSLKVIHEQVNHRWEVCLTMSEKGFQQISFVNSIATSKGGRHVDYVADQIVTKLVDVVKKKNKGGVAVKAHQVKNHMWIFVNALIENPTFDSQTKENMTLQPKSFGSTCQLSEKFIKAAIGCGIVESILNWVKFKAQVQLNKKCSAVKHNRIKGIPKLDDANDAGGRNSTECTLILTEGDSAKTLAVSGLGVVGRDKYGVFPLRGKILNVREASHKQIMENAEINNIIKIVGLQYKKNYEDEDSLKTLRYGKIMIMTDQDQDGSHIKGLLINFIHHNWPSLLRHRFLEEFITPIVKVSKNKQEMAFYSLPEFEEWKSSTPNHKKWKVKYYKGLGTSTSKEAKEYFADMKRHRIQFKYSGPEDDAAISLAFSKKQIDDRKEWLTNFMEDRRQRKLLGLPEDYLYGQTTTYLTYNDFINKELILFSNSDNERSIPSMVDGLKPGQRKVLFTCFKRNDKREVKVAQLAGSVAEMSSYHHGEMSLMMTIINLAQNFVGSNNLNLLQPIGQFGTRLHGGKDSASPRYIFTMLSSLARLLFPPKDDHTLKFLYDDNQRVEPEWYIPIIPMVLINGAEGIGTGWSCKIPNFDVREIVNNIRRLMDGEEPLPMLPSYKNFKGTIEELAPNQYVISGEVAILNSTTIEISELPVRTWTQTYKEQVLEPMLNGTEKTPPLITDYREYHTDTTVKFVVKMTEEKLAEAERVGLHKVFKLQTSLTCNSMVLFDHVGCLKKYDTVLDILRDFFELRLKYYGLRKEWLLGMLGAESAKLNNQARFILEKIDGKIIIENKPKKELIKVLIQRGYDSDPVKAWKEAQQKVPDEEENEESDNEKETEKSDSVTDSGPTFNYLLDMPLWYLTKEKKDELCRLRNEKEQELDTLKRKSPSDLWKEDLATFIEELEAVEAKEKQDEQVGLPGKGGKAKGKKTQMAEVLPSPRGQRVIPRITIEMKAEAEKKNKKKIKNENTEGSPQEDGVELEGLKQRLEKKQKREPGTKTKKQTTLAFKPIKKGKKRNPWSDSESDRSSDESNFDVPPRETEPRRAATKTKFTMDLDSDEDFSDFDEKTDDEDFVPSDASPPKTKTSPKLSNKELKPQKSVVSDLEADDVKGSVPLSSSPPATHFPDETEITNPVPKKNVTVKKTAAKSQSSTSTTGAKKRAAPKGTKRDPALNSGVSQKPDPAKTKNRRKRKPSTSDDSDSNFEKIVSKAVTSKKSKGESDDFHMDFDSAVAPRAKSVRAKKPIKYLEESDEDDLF
SLC6A6 Y138A: Sodium- and chloride-dependent taurine transporter (SLC6A6, Homo sapiens, UniProt P31641, Y138A)
HTR2A: 5-hydroxytryptamine receptor 2A (HTR2A, Homo sapiens, UniProt P28223)
Chain of UniProt P28223 (whole entry, looked up): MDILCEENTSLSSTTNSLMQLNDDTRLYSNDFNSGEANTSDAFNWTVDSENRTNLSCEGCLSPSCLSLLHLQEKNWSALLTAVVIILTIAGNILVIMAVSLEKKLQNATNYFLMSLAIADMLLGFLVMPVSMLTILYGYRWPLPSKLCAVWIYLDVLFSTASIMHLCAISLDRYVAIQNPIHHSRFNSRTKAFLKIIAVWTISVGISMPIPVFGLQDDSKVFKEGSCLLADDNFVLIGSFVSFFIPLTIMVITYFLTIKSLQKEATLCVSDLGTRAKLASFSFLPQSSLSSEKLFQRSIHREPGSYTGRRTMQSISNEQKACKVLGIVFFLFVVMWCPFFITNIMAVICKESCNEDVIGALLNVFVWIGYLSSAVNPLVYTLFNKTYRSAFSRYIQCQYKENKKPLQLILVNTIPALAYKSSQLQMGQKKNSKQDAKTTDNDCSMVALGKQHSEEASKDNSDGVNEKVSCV
HTR7: 5-hydroxytryptamine receptor 7 (HTR7, Homo sapiens, UniProt P34969)
Chain of UniProt P34969 (whole entry, looked up): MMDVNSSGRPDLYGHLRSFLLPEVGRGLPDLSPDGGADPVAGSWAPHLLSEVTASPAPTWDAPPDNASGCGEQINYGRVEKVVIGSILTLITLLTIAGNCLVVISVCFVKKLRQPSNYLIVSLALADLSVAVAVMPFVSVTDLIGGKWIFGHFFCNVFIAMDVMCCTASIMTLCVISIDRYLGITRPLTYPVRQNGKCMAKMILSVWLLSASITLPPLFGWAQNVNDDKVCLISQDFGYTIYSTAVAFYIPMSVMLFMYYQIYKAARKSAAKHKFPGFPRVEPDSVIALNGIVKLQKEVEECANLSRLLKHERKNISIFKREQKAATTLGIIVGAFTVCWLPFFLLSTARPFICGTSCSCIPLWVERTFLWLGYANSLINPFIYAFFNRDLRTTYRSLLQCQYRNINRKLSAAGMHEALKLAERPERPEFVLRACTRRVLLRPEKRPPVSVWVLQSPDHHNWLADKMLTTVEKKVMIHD
BIRC3 BIR1 domain: Baculoviral IAP repeat-containing protein 3, BIR1 domain (BIRC3, Homo sapiens, UniProt Q13489)
Chain of UniProt Q16774 (whole entry, unmodified, looked up): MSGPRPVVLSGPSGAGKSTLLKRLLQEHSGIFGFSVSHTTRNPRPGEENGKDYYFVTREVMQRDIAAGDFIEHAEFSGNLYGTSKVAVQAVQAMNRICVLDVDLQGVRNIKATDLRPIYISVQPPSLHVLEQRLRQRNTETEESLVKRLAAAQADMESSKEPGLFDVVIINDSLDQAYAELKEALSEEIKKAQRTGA
Chain of UniProt Q64663 (whole entry, unmodified, looked up): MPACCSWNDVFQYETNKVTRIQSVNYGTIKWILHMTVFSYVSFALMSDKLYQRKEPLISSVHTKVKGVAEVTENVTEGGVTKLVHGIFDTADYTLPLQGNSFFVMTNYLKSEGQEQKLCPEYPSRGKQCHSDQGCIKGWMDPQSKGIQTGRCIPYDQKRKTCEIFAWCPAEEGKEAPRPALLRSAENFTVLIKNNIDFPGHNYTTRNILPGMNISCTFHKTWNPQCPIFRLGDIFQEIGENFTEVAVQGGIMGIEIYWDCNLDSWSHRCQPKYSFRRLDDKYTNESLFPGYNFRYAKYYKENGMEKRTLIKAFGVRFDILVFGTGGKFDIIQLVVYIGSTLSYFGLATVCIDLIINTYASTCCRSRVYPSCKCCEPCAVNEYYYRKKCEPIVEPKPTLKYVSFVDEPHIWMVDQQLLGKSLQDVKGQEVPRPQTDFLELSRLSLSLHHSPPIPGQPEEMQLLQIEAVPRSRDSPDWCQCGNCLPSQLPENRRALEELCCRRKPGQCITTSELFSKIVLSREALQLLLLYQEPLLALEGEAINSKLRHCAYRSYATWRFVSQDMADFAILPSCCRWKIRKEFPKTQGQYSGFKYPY
Chain of UniProt Q695T7 (whole entry, looked up): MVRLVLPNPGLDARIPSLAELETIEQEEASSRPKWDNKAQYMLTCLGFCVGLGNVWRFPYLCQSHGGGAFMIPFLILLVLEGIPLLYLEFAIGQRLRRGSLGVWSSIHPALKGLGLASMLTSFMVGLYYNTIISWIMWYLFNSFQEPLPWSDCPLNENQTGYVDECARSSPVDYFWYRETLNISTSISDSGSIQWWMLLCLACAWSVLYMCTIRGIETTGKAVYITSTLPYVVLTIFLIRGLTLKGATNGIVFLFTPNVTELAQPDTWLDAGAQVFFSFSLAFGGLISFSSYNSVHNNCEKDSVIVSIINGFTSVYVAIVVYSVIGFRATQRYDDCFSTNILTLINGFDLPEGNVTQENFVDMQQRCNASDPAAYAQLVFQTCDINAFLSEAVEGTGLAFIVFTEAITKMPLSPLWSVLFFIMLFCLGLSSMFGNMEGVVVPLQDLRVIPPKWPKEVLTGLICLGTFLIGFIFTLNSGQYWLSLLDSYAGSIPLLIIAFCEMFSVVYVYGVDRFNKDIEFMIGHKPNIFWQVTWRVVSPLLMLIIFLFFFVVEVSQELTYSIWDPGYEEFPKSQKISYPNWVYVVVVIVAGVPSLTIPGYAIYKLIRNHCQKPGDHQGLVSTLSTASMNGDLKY
Chain of UniProt Q13489 (whole entry, looked up): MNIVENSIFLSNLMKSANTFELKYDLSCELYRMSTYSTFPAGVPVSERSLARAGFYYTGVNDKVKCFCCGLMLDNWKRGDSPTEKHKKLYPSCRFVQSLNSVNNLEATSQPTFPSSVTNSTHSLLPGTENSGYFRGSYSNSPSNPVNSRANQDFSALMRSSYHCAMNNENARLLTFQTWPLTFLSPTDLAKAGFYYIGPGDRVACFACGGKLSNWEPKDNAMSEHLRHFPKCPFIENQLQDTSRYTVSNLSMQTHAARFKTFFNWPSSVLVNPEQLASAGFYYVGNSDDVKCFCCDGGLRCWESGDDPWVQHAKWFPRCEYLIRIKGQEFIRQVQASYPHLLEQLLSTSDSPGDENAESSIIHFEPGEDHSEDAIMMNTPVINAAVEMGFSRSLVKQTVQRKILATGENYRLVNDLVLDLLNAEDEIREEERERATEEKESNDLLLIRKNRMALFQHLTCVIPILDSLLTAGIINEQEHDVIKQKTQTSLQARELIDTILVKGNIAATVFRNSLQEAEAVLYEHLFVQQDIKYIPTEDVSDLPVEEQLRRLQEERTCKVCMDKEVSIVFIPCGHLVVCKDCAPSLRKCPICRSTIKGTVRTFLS
Chain of UniProt P51575 (whole entry, unmodified, looked up): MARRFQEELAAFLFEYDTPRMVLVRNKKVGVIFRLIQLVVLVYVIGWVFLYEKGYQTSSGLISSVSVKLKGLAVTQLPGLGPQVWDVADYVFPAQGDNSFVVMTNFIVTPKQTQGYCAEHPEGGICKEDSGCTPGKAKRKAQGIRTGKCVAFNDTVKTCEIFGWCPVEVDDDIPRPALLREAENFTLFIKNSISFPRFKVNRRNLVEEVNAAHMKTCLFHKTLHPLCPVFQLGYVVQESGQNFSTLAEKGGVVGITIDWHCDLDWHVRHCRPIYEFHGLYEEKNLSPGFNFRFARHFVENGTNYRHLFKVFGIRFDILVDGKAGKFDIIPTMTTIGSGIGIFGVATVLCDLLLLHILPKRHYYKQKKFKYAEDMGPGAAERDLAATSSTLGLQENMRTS
Chain of UniProt P14174 (whole entry, looked up): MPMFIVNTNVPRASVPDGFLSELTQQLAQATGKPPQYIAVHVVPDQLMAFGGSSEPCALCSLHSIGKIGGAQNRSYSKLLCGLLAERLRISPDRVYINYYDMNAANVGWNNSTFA

Structure (SMILES)	target	test	test system	conditions	scale	measurement	result
CC(C)[C@H](NC(=O)c1cc(-c2cnn3cc(-c4ccc(OCCN5CCCCC5)cc4)cnc23)cs1)C(F)(F)F	RSK4 (human)	radiometric kinase	–	15 nM	baseline: RSK4 over ULK1	relative inhibition	0
O=c1nc(SCc2ccc(C(F)(F)F)cc2)nc(SCc2csc3ccc(Cl)cc23)[nH]1	TOP2A	decatenation	–	0.49 µM, replicate 2	–	decatenated DNA	0%
Cc1n[nH]c2ccc(-c3cc(OC[C@@H](N)Cc4ccccc4)cnc3-c3ccoc3)cc12	Protein kinase C-like 1 (Candida albicans, UniProt P43057)	kinase binding, competitor, MIB/MS competition, measured: PKC1	Candida albicans cell lysate	1 µM	baseline: DMSO	log2 fold change	0.00546
O=C(O)CSc1nc(SCC(=O)O)nc(-c2ccc(N3CCOCC3)cc2)n1	Stromal cell-derived factor 1 (CXCL12, Homo sapiens, UniProt P48061)	–	–	–	–	ligand efficiency	0.17
COc1ccccc1-c1n[nH]c2nc(N[C@H]3CC[C@H](NS(=O)(=O)CCCOCCOCCNC(=O)OC(C)(C)C)CC3)ncc12	mitogen-activated protein kinase 9 (Leishmania donovani, UniProt A0A3Q8IB74)	resin binding, SILAC competition pull-down, measured: MPK9	Leishmania donovani extract	10 µM	baseline: heavy over light	log2 fold change	3.12
CCOc1ccc(NC(=O)O[C@@H](Cn2nc(C(C)C)cc2C(C)C)C(C)C)cc1	Neuronal acetylcholine receptor; alpha4/beta2, (α4)2(β2)3 stoichiometry (Homo sapiens, UniProt P17787+P43681)	two-electrode voltage clamp	Xenopus oocytes	concentration not given, high-sensitivity stoichiometry, with: ACh 3 µM	baseline: ACh alone	maximum response	24.7 ± 0.2 fold
Cc1ccnc(C)c1OC[C@H]1CN(CCN2CCc3ccccc32)CCO1	5-hydroxytryptamine receptor 2C (HTR2C, Homo sapiens, UniProt P28335)	radioligand binding	–	concentration not given, with: [3H]mesulergine	–	inhibition	1.5%
Nc1ncnc2c1ncn2[C@@H]1O[C@H](CO[P@](=O)(O)O[P@](=O)(O)O[P@@](=O)(O)S)[C@@H](O)[C@H]1O	GUK1 (Homo sapiens, UniProt Q16774)	ITC	–	molar ratio 0.6998	–	ΔH	-1.29 kcal/mol
Nc1ncnc2c1ncn2[C@@H]1O[C@H](COP(=O)(O)OP(=O)(O)NP(=O)(O)O)[C@@H](O)[C@H]1O	Cell cycle histidine kinase CckA, CA domain (Caulobacter vibrioides, UniProt Q9X688)	ITC	–	without c-di-GMP	–	ΔH	-1.91 ± 0.0973 kcal/mol
O=S(=O)(O)C1CCNCC1	SLC6A6 Y138A	binding, microscale thermophoresis	–	30.5 nM, fitted curve	higher = more binding	fraction bound	0
Cc1cc(OCC(=O)NC(C)C)cc(C)c1Cl	Sodium-dependent neutral amino acid transporter B(0)AT1 (SLC6A19, Homo sapiens, UniProt Q695T7)	membrane potential, FLIPR membrane potential	CHO-BC cells	concentration not given, first screen	baseline: uninhibited control	normalised transport activity	0.549 and 0.583 and 0.683 and 0.643
CC(C)C[C@H](N)C(=O)O	Sodium- and chloride-dependent neutral and basic amino acid transporter B(0+) (Slc6a14, Mus musculus, UniProt Q9JMA9)	transport current, two-electrode voltage clamp	Xenopus oocytes coexpressing GluN1-GluN2B	200 µM	–	current amplitude	1020 ± 214 nA
Nc1ncnc2c1ncn2[C@@H]1O[C@H](COP(=O)(O)CP(=O)(O)OP(=O)(O)O)[C@@H](O)[C@H]1O	P2X purinoceptor 1 (P2RX1, Homo sapiens, UniProt P51575, F188L)	saturation binding	HEK293	79 nM	–	specific binding	6810 CCPM and 5230 CCPM
COc1cc(C(=O)NS(=O)(=O)c2ccccc2C)ccc1Cc1cn(C)c2ccc(NC(=O)OC3CCCC3)cc12	LRRC8A/LRRC8C (Homo sapiens, UniProt Q8IWT6+Q8TDW0, Y124F/Y126F)	whole-cell patch clamp	HCT116 LRRC8-/- transfected	at +100 mV	–	Hill coefficient	1.53
C=CC(=O)N1CCC(COCC(=O)N2CCN(c3nc(-c4cnc(N)nc4C(F)F)nc(N4CCOC[C@@H]4C)n3)CC2)CC1	1-phosphatidylinositol 3-phosphate 5-kinase (PIKFYVE, Homo sapiens, UniProt Q9Y2I7)	KINOMEscan	–	1 µM	baseline: DMSO control	remaining binding	71%
CN(C)C(=O)C(CCN1CCC(O)(c2ccc(Cl)cc2)CC1)(c1ccccc1)c1ccccc1	Calcium-activated potassium channel subunit alpha-1, with LRRC26 γ1 subunit (KCNMA1, Homo sapiens, UniProt Q12791)	BK current, inhibitor, inside-out patch clamp	excised membrane patch	3 µM, γ1 subunit coexpressed, with: nominally 0 Ca2+ cytosolic	baseline: without loperamide	normalized Gmax	0.443
Nc1nc2c(ncn2[C@@H]2O[C@H](COP(=O)(O)O)[C@@H](O)[C@H]2O)c(=O)[nH]1	GUK1 (Homo sapiens, UniProt Q16774, D103A)	enzyme activity, NADH-coupled	–	15.62 µM	–	reaction rate	1.97 s⁻¹ and 1.94 s⁻¹ and 3.34 s⁻¹
C[C@@H](O)CNC(C)(C)CC(=O)N[C@@H]1CCc2ccccc2N(Cc2ccc(-c3ccccc3-c3nn[nH]n3)cc2)C1=O	Growth hormone secretagogue receptor type 1 (GHSR, Homo sapiens, UniProt Q92847)	Gαq dissociation, TRUPATH BRET	HEK293T	shared parameter fit	–	Hill slope	0.66
Nc1ncnc2c1ncn2[C@@H]1O[C@H](COP(=O)(O)OP(=O)(O)OP(=O)(O)O)[C@@H](O)[C@H]1O	P2X purinoceptor 7 (P2rx7, Rattus norvegicus, UniProt Q64663)	ion current, agonist, two-electrode voltage clamp	Xenopus laevis oocytes	37 µM	baseline: highest concentration response	normalized current	0.41 and 0.54 and 0.63

Structure (SMILES)	target	test	test system	conditions	scale	measurement	result
COc1ccccc1N1CCN(CCCCN2CCc3ccccc3C2=O)CC1	HTR2A	radioligand binding	–	concentration not given, with: [3H]ketanserin	–	inhibition	91.5%
COc1cc(NC(=O)c2cscn2)ccc1/N=N/c1ccccc1Cl	Metabotropic glutamate receptor 2 (GRM2, Homo sapiens, UniProt Q14416)	positive allosteric modulator, IP accumulation	HEK293	30 µM, in the dark, with: low-dose orthosteric agonist	–	activation	-3.04%
Clc1cncc(OC[C@@H]2CN(CCN3CCc4ccccc43)CCO2)c1	HTR7	radioligand binding	–	concentration not given, with: [3H]LSD	–	inhibition	7.6%
COc1cc(O)c2c(c1)oc(=O)c1c3cc(O)c(O)cc3oc21	Alpha-glucosidase MAL12 (MAL12, Saccharomyces cerevisiae S288c, UniProt P53341)	circular dichroism	–	molar ratio 1:1	–	α-Helix content	20.8%
CC1(C)CC2(C)OC(=O)NC2(C)c2ccccc21 (centres unmarked)	WD repeat-containing protein 55 (WDR55, Homo sapiens, UniProt Q9H6Y2)	binding, affinity selection mass spectrometry	–	–	baseline: other proteins in batch	log fold enrichment	-0.0686
OC[C@H]1OC(O)[C@H](O)[C@@H](O)[C@@H]1O (some centres unmarked)	Hexokinase-3 (HK3, Homo sapiens, UniProt P52790, D264A/R265A)	substrate inhibition	–	mutant D264A/R265A, complete substrate inhibition model, with: ATP 20 mM	–	kcat	39 ± 19 s⁻¹
Clc1cccc(OC[C@H]2CN(CCN3CCc4ccccc43)CCO2)c1	HTR7	radioligand binding	–	concentration not given, with: [3H]LSD	–	inhibition	43.8%
CCCCC[C@H](O)/C=C/[C@H]1[C@H](O)CC(=O)[C@@H]1C/C=C\CCCC(=O)O	Prostaglandin E2 receptor EP1 subtype (PTGER1, Homo sapiens, UniProt P34995, L143A)	IP1 accumulation, agonist	AD293	1 h, EP1 L143A mutant	–	Emax	38.3 ± 5.81%
COc1ccc(N2Cc3ccc(O)cc3OC2=O)cc1OC	Macrophage migration inhibitory factor (MIF, Homo sapiens, UniProt P14174)	inhibitor, ELISA	–	up to 50 µM	–	binding inhibition	no inhibition
N[C@@H](CCC(=O)O)C(=O)O	uncharacterized protein (Ixodes scapularis, UniProt A0A0N9E2I2)	agonist, two-electrode voltage clamp	Xenopus oocytes	100 µM	–	current amplitude	50 to 400 nA
O=C(O)[C@@H]1CCCN1c1ncnc2[nH]cnc12 (racemic)	E3 ubiquitin-protein ligase CHIP (STUB1, Homo sapiens, UniProt Q9UNE7)	binding, affinity selection mass spectrometry	–	–	baseline: other proteins in batch	fold enrichment	0.937
Nc1ccc2cc3ccc(N)cc3nc2c1	Chymotrypsinogen A, activated (alpha-chymotrypsin) (Bos taurus, UniProt P00766)	isothermal titration calorimetry	–	concentration not given, 25 °C, with: 0.5 M N,N-dimethylglycine	–	entropic contribution to binding	-15 ± 1.41 kcal/mol
CCCCC[S+]([O-])c1n[nH]c(N)n1 (centres unmarked)	BIRC3 BIR1 domain	binding, affinity selection mass spectrometry	–	–	baseline: other proteins in batch	log fold enrichment	0.165
O=C(O)c1ccc(Nc2ncc3c(n2)-c2ccc(Cl)cc2C(c2c(F)cccc2F)=NC3)cc1	ROCK-I(h)	kinase activity	–	1 µM	–	remaining activity	120%
Cc1cccc(N2CC(C(=O)O)CC2=O)c1 (centres unmarked)	BIRC3 BIR1 domain	binding, affinity selection mass spectrometry	–	–	baseline: other proteins in batch	fold enrichment	0.986
Cc1ccc(OC[C@@H]2CN(CCN3CCc4ccccc43)CCO2)cn1	HTR2A	radioligand binding	–	concentration not given, with: [3H]ketanserin	–	inhibition	27.8%
O=c1nc(SCc2cc(F)cc(C(F)(F)F)c2)nc(SCc2ccc3sccc3c2)[nH]1	TOP2A	DNA relaxation	–	62.5 µM, replicate 1	–	relaxed DNA	0%
NCCCS(=O)(=O)O	SLC6A6 Y138A	binding, microscale thermophoresis	–	62.5 µM, room temperature, with: 50 nM labelled protein	higher = more binding	normalised MST signal	0.246
CCN1CCC[C@H]1CNC(=O)c1c(O)c(Cl)cc(Cl)c1OC	GPR37 (Homo sapiens, UniProt O15354)	β-arrestin recruitment, TANGO luminescence	–	concentration not given	baseline: basal luminescence	log2 fold change	0.025

For quick reference, copied from above:
Structure (SMILES)	target	test	test system	conditions	scale	measurement	result
CCCCC[S+]([O-])c1n[nH]c(N)n1 (centres unmarked)	BIRC3 BIR1 domain	binding, affinity selection mass spectrometry	–	–	baseline: other proteins in batch	log fold enrichment	0.165
O=C(O)c1ccc(Nc2ncc3c(n2)-c2ccc(Cl)cc2C(c2c(F)cccc2F)=NC3)cc1	ROCK-I(h)	kinase activity	–	1 µM	–	remaining activity	120%
